Assay results gathered from unrelated publications.
Numbered parts are unrelated; each lists some results of a single study.

Study 1 — technique: RNA Bind-n-Seq; form: RNA; medium: in vitro; concentration: 200 nM; setting: whole 134-nt RNA, ends assumed; with: 150 mM KCl; relative to: input library; direction: higher = stronger binding; measurement: log2 enrichment
Target: Ras GTPase-activating protein-binding protein 1, full length (G3BP1, Homo sapiens, UniProt Q13283)
Sequence of UniProt Q13283 (whole entry, looked up): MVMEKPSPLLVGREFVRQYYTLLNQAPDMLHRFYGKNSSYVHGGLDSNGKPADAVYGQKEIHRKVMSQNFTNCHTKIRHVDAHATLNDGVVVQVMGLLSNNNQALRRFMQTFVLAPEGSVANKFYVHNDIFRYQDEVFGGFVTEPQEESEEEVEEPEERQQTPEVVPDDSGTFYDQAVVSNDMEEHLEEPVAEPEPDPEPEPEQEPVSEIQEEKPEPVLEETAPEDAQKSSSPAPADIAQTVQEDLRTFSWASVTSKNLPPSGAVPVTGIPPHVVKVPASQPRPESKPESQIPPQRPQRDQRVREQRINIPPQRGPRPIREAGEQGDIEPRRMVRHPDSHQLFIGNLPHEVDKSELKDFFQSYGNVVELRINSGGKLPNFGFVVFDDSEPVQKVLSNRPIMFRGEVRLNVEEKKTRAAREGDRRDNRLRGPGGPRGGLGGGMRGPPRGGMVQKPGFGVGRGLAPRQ
All sequences stand within: GGGAGUUCUACAGUCCGACGAUC … UGGAAUUCUCGGGUGUCAAGG
UAACUUUAGAGGAGGAUCUGAUGGAUAUGGCAGUGGACGUGGAUUUGCGGAUGGCUAUAAUGGGUAUGGAGGAGGACCUGGAGGUGGCAA: 0.304
GCAGGAAGUAAAAACAAAUGGAAAUGCUUCGCAUAGUGGCAGGGGUGGGGGUUGCUAAGGAAAGGGUGGGAUGGGAGUGGGUAAAGAGUU: 1.35
UGGCCCUGGUGGCAUGCGGGGAGGAAGCGGUGGCCUCAUGGAUCGUGGUGGUCCCGGUGGAAUGUUCAGAGGUGGCCGUGGUGGAGACAG: -0.000486
GUCCUGUGCUACACAUCGUAUGUACCGAAUCGGGGUUUUUUUGGGGAGGGGAAAGGGGAAAGUAUUAUGUUACGCCGUUCGGAUCUGCAC: 0.362
AAGUCCUGUGCUACACAUCGUAUGUACCGAAUCGGGUUUUGGGUUUUGGGUUUUGGGAAAGUAUUAUGUUACGCCGUUCGGAUCUGCACU: -0.118
CAGCAGCAGAGUGAGUGGAUUUUAUUUUUCGUUAUUGUUGGUGGUUUAAAAAAUUCCCCCCAUGUAAUUAUUGUGAACACCUUGCUUUGU: -0.307
CCUGUGCUACACAUCGUAUGUACCGAAUCGGUUUUUUUGGUUUUUUUGGGUUUUUUUGGGGAAAGUAUUAUGUUACGCCGUUCGGAUCUG: -1.08
CAAGUCCUGUGCUACACAUCGUAUGUACCGAAUCGGGGAAAGGGAAAGGAAAGGGAAAGUAUUAUGUUACGCCGUUCGGAUCUGCACUUC: -0.0985
UGCGCCAACCUAGGCUUUCUUCUUCCUCUCCUCUUUAUAGGCGGAGUCGAUCUCCCAAAAGGAGAAGGUAGGCCUUCAGUCAUUUGUGAU: -0.369

Study 2 — technique: RNA Bind-n-Seq; form: RNA; medium: in vitro; concentration: 365 nM; relative to: no-protein control; direction: higher = stronger binding; measurement: RBNS enrichment (R)
Target: RNA binding protein fox-1 homolog 2, RRM domain, GST-SBP tag (RBFOX2, Homo sapiens, UniProt O43251-10, residues 100-194)
Setting: natural RNA segment, single round, ends assumed
All sequences stand within: GGGAGUUCUACAGUCCGACGAUC … UGGAAUUCUCGGGUGCCAA
Construct (chain): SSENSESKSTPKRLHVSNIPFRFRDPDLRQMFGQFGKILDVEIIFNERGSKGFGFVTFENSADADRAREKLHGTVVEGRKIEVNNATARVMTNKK
GCCUUUGAGAAUGGGGAGAAACAGCCUGGGCUGGGGCUACAGGUCUGUCACUAUGCUCUCUUGCCUUCAGACAGACCAUUCUGAAUUCUCUAAAGGGAAAGGGCUUUUGC: 0.456
AAAUCAUUCAGUAAACAUGAGACAAGUUUAGGAAAAACUAAUAAAAUAAACCUGUCUUAAACUUGAAUGGUUUCCUUAAUUCCAUAAUGAAGGCUGCUGGGUGUGUGUGU: 0.639
AGAAUUGUUGGCAUGAUGACAUUUCAUUUGUGCCAAAAAUAUUAAAAAUGCCUUUUUUGGAAGGACUAACAGAAAGCACCUGAUUUGCACUUGAACCAGAUUAUAGAUUU: 0.737
GGACUGUGAUGUCAUAUUAUUCAGUUUUAUGCUUGUUCCUGAGCAGAACUCAUAAGAGUGACAUAGUCAGCUGCUGACGGCACCUCAGCCACGCCACUCUUACUCAGUUC: 1.02
CUUAACUCAGUAAAGAUGGAAGUGGUAAAGAAACCAAGUAGACAGUAGGGGCUCUUGAGAGUAUUGAAAGGCAGUGCUGCCUUUAUGCAGGAAGGUAUAAACCGGUUAUG: 0.899
GUAAUGUAUUCAAAAUUGUCAGUGUGGUGGCAUCAAAUAUGUAGAGAUGGUCUUUCUGUGGAGAAUUUGUGGAACUUUAGUGUGGAGAACAAAGAAGGAGUUGGAGAUGA: 1.62
UGCCUCUCUUAGUCUUCCCCCUAGAGCUAGGCGCCUACCAGGUGUAUAUAUGUAGCAUACUUUGGGGGACUGCGAUCAGAAGUGAGGUGGAGGGACUGGCACCGGUUAAC: 0.322
GCCCUUGAACUUGAAGGACAUUAAAUUAUUAAUGAUCAUUUGGUAACAUGUUUACCUGAUUAUCUUCCAUAGAGUAACAUAAGCUGCUUUUCAAAGGUACCAUUGUGAUA: 0.315

Study 3 — technique: protein-binding microarray; form: double-stranded DNA, one strand shown; medium: in vitro; concentration: 0.8 µM; setting: whole 60-bp probe, no competitor; direction: higher = stronger binding; measurement: fluorescence intensity; all sequences stand within: … GTCTTGATTCGCTTGACGCTGCTG
Target: Centromere-binding protein 1, full length, N-terminal tag (CBF1, Saccharomyces cerevisiae, UniProt P17106, residues 1-351)
Sequence of UniProt P17106 (whole entry, looked up): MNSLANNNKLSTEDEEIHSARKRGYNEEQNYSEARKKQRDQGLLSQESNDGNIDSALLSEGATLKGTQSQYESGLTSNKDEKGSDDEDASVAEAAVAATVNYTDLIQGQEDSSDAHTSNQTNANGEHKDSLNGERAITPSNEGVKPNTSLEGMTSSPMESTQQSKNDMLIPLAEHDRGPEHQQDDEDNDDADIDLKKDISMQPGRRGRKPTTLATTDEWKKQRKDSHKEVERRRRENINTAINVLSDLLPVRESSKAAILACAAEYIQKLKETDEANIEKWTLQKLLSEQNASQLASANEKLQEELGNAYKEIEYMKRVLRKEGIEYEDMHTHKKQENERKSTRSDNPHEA
CTAACAAAAAGACCTCACGTATTTTATGAAATTTTC: 519 a.u.
CTATAGCAAATGTACAACGTGTGAAAGTAAAGATTC: 581 a.u.
CTATGCACTTGAAACAACGTGTAGACCATCACGTTC: 620 a.u.
CTAGAGCGGTAATCATGAGGGTCCCTGGTAGTATTC: 498 a.u.
GAAAGAAACATATACCTCGTGCTAAAGAAAATATAG: 1110 a.u.
TGTACGAAGCTATTGCAGGTGTGTATAGTAGTTAGG: 560 a.u.
CTAGATATGTCTTATTGCGTGATTTCACGGTGTTTC: 564 a.u.
CTACCACCAAATGCTTAGGTGACTCCATTGTAATTC: 564 a.u.
TGTACGAAGCTATGTGACTTCTGTATAGTAGTTAGG: 560 a.u.
CTATACAATTTATAAACCACCACCTTGGCCTCGTTC: 504 a.u.
CTAAGCCATCAAGGTAACGTGTTTACCATCTAATTC: 726 a.u.

Other studies, line by line
PhoQ, residues 284 288 289 292 302 303 NLALSC — fold induction (PhoP, residues 12 14 15 18 19 QWHVF (Escherichia coli, UniProt P23836); Sort-seq, item: YFP reporter; E. coli; PhoQ-PhoP variant library, with: 10 µM Mg2+; relative to: high Mg2+ state, higher = stronger signaling): 2.36

Excerpt of the above (study 3):
CTAAGCCATCAAGGTAACGTGTTTACCATCTAATTC: 726 a.u.
GAAAGAAACATATACCTCGTGCTAAAGAAAATATAG: 1110 a.u.
CTATAGCAAATGTACAACGTGTGAAAGTAAAGATTC: 581 a.u.
CTAGATATGTCTTATTGCGTGATTTCACGGTGTTTC: 564 a.u.
